Published values pooled from the literature.
Numbered parts are unrelated; each lists some results of a single study. Positions count from the first letter of the parent shown.

Block 1
Target: Histone acetyltransferase KAT6A, both winged helices, GST fusion (KAT6A, Homo sapiens, UniProt Q92794, residues 1-181)
Method: protein binding microarray
Form: double-stranded DNA, one strand shown
Sample: in vitro
Tested at: not given
Notes: 8-mer, flanks averaged, mean of 2 arrays, mostly near background
Baseline: not given
Reading: higher = stronger binding
Residues (chain): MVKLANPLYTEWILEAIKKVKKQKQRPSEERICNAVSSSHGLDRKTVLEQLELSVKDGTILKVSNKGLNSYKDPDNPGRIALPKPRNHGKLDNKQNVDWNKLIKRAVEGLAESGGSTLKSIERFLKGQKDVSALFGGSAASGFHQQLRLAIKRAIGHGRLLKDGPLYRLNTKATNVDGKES
`ATAGAATG` gave an E-score of -0.0672.
`GAATCCAA` has an E-score of -0.1.
The E-score of `GTTGTTTA` is reported as -0.151.
`GAACTCGC` gave an E-score of 0.0741.
`CCAGTGGA` has an E-score of -0.219.
The E-score of `CAGCACTG` is reported as -0.15.
For `GCGGCGCC`, the E-score was 0.358.
`CGAAACGA` gave an E-score of 0.00543.
`TGACGCAA` has an E-score of 0.0689.
The E-score of `TGGGAACA` is reported as -0.235.
With `CCGGTGTC` the E-score was 0.0827.
The E-score of `ATTGAATC` is reported as -0.125.
The E-score of `ACTGATTG` is reported as -0.3.
For `GCTGATTA`, the E-score was 0.0452.
`CTCGACGA` has an E-score of -0.15.
With `CATTCTCA` the E-score was -0.0642.
For `CTATTGTC`, the E-score was -0.187.
With `GTTTTGGA` the E-score was -0.0827.
`ACTAGTCA` gave an E-score of -0.181.
With `GAGGATGC` the E-score was -0.127.
`AGGGCATG` has an E-score of -0.251.
`ATAAGTCG` gave an E-score of 0.0125.
`CCGGTCCC` has an E-score of 0.227.
The E-score of `AGTACTCG` is reported as -0.0158.
The E-score of `AGTACAGA` is reported as -0.0906.

Block 2
Target: RING finger protein unkempt homolog, zinc fingers 1-6, GST-SBP tag (UNK, Homo sapiens, UniProt Q9C0B0, residues 30-357)
Chain of UniProt Q9C0B0 (30-357, looked up): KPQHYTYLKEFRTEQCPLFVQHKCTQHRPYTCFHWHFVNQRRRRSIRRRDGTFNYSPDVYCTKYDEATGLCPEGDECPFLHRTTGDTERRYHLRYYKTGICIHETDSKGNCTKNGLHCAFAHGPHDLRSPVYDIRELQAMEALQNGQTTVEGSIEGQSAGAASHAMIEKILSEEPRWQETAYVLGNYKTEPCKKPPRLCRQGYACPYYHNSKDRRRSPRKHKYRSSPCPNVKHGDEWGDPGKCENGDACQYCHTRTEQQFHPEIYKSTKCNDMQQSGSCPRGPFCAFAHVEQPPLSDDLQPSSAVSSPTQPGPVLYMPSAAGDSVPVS
Method: RNA Bind-n-Seq
Form: RNA
Sample: in vitro
Tested at: not given
Notes: RNA with constant flanks, human and mouse sites, ends assumed
Baseline: input RNA pool
Reading: higher = stronger binding
Shared flanks, not repeated: GGGAGUUCUACAGUCCGACGAUC … CAACAGAGGAUUGAGCAUCA
With `UAUUUUGCUCCUAUACCAUCGGAAGACCAUGCUGAAAAUAAAGUGGACAUUUUAGAAAUGCUACAGAAAGCCAAAGUAGAUUUAAAACCUCUUCUUUCUAGCCUUUCUGCAAAUAAAGAA` the bound/input enrichment was 0.336 ratio.
With `ACUAGAAUCCCGUCGUAAAUACAUGGCUCGUCUAAUUCAGAAGCUUCGCUAUAGGUGAGCAAGUCUUGGCUUGGUGUGUAUCUUACUGUUUUUGUUGCAUUUAGGAUGCUGCAGCUGAUU` the bound/input enrichment was 0.303 ratio.
For `AGCCGAGGAGACCCCGCGCAGUGCUGCCAACGCCCCGGUGGAGAAGCUGAGGUCAUCAUCAGAUUUGAAAUAUUUAAAGUGGAUACAAAACUAUUUCAGCAAUGCAGACAAUUAAGUGUG`, the bound/input enrichment was 0.283 ratio.
`GAAUGCAGUUAUAUUUGGACCAGAAGGGACACCUUUUGAAGAUGGUACUUUUAAACUAGUAAUAGAAUUUUCUGAAGAAUAUCCAAAUAAACCACCAACUGUUAGGUUUUUAUCCAAAAU` gave a bound/input enrichment of 1.3 ratio.
The bound/input enrichment of `GAUGGCAAUGGCCAGGAGGCCUAUGCCUCGAGCUGCAACAGCGGCACCUCUUACAAUUCCAUUAGCUCUGUUGUAUCCCGGUGAGGGCAGCCUCUGGCUUGGGCAGGGUCUGUUUGGACU` is reported as 0.164 ratio.
For `CCUCCACUUCCCAGGGAAGAUAAGAGGAAAGUAACAGUUUCAUUACACACACUCACAUGUGUGAGCACAUACAAAUGUGCACACACACACACACAACUGUUAGGAAUAUGUAAACAUAAU`, the bound/input enrichment was 0.608 ratio.
`UUCUACUGCAUCUCAUCUGACACUCCACUGCCAGAUACAGAAAAAACAGAACUCACAGGUGUAAUAGUGAUUGAUAAAGACAAGACAGUUUUCAGUCAAGAUAUCAGAUAUCAGACUCCA` has a bound/input enrichment of 0.284 ratio.

Block 3
Target: RNA binding protein fox-1 homolog 2, RRM domain, GST-SBP tag (RBFOX2, Homo sapiens, UniProt O43251-10, residues 100-194)
Method: RNA Bind-n-Seq
Form: RNA
Sample: in vitro
Tested at: 365 nM
Notes: natural RNA segment, single round, ends assumed
Baseline: no-protein control
Reading: higher = stronger binding
Shared flanks, not repeated: GGGAGUUCUACAGUCCGACGAUC … UGGAAUUCUCGGGUGCCAA
Residues (chain): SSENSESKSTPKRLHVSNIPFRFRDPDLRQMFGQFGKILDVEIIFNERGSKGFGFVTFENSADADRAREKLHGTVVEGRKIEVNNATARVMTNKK
`AGAGAAAUGUUUGUCUUUCUGUUGUCUAUACAUCAAAGAAGCCAUUAAAUUGUUUUAUUUCUCAAGAGUUGCAGAUCUCAAGGGAGAUGGAGAGCCAUGAGAAAGUGUUC` — result for “RBNS enrichment (R)”: 1.07.
Under “RBNS enrichment (R)”, `AUACCUGGUGCUGUCCCUGGGCUCUGCUGGUCAUGUGAGGCAGCCUCGGAGAAGGAAGCAGAGGGUGUAAUGACUGGCACACCUGGACAGCUUUUCUCCAUCCGCAGACA` is recorded as 0.683.
`GAGGUGACUGACCACCUAGGGCCCCUGAGAGGCAAAGGGAACCUGCAAAGGGCCUGUCCCCGGGCAGAAGAUGAAGCCCCUACCCGUGGACUGUGUGGUUCCAUCUCUGG` — result for “RBNS enrichment (R)”: 0.661.
`UAUCACACGUGGCCUUGUCUAGACCCAGUCCUGAGCAGGGGAGAGGCUCUUGAGACCUGAUGCCCUCCUACCCACAUGGUUCUCCCACUGCCCUGUCUGCUCUGCUGCUA`: “RBNS enrichment (R)” 0.48.
`UUUACUAUAAUAAUUAUUUUUCUUCUAUGGAACUCAGAAUCCUGGCUACAUUUGAGGACAGGAAUAUGUUGAGCCUGAUUUUCCUGGUGUGUGUAAAAUAUUUCCUAGGA` — result for “RBNS enrichment (R)”: 0.46.
`CUAUUGGACAAAGUAUUUAUGUAAUUAUUUGAUAUCUCUUGUAAAUAGGUGGAAUAUGACUGCUCAGAAAGUUAAACUUUAAUUUAUUGAAUUGUACAUAGCUGGAUGUA` — result for “RBNS enrichment (R)”: 0.371.
For `AACCAAAUAGGCUUUAGAAGAGAUUAUCCUAUAUUCCUAUCAGUAUAAUACUAAAAUGUAACUUUUUAAUCAUCUGGUUUUUAAAAGAUAAACAGUUUAGCCCAUCUCUC`, “RBNS enrichment (R)” read 0.302.
`AGGCCGCAUUUCUGACCUGAGCCCCGGGUCUCGGCUGUUUCGAGCCCCGCCUCGGACUUGCCUUCCCUCCCCUCCGGGUGAGCCUGUCUGGCGCCUUCCUCGCCCCGGGC` — result for “RBNS enrichment (R)”: 0.734.
`GUGGGGUGACUGGGAGACCUAGAGGGAAAGCCUGCUAUGCAGGGGGAGAGCACAGGACUGGCCCUGCUCUGCGGCCUCCUUUGUCCCAUAACCUGAAGUUAAGUCACAUC`: “RBNS enrichment (R)” 0.559.
Under “RBNS enrichment (R)”, `GGUGCCACCAUUGGUGCUGCCUUCUCUUCCCACAGCCUGUAACUCAGUGUUUUGUACUUCACUGAAUUGUGAUGGUUAGAAACUUCGUGGAUAGUUUGUGGAAAUCAUCC` is recorded as 0.698.
For `GGGAAAAGAUUCCCACCCAAUUCAAAACAUUGUGCCAUGUCAAACAAAUAGUCUAUCAACCCCAGACACUGGUUUGAAGAAUGUUAAGACUUGACAGUGGAACUACAUUA`, “RBNS enrichment (R)” read 0.354.
`CCCGAGCCACGGUGUUCAGUCAGCCCACAGGAAUAUGCAAGACCCAUCUCCAAAAGUUUGUCUUUGAUUUUUUCCAAGCCCUUAGCCCCAUAAGCUUUGAAUCCUGUAGU`: “RBNS enrichment (R)” 0.453.

Block 4
Target: Sal-like protein 4, full length isoform A (SALL4, Homo sapiens, UniProt Q9UJQ4, residues 1-1053)
Chain of UniProt Q9UJQ4 (whole entry, looked up): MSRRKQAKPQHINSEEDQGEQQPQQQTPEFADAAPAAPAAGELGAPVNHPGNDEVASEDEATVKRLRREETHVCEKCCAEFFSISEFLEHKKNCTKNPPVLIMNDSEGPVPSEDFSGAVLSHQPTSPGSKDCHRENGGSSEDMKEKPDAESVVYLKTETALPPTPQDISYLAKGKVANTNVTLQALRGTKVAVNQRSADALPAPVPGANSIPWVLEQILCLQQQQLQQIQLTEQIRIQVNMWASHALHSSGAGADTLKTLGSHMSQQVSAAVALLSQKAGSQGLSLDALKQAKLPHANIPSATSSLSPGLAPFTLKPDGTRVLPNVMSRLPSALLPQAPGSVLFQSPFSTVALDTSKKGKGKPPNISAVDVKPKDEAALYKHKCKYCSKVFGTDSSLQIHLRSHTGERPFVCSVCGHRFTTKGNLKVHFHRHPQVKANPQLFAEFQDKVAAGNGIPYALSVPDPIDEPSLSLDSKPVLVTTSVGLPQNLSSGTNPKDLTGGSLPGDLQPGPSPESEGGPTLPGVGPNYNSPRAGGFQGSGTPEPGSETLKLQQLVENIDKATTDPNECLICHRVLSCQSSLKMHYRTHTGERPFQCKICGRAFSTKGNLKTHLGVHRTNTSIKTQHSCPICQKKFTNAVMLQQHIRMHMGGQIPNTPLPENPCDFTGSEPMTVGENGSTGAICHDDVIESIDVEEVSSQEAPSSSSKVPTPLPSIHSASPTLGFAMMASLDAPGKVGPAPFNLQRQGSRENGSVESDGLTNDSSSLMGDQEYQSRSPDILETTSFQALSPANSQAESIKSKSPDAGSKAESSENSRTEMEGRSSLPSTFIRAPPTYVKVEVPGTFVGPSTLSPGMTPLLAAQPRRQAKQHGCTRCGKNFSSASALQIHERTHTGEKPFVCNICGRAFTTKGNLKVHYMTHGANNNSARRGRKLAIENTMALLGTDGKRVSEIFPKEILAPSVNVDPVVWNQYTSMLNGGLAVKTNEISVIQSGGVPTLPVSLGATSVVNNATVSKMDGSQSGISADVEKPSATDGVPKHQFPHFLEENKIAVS
Method: universal PBM
Form: double-stranded DNA, one strand shown
Sample: in vitro
Tested at: 600 nM
Notes: 8-mer, flanks averaged, mean of replicates
Reading: higher = stronger binding
With `AAGTTCAT` the E-score was 0.0794.
With `CTCCCGAA` the E-score was -0.11.
With `AGTTTGCG` the E-score was -0.145.
For `ATGGTAAA`, the E-score was 0.254.
`CTAATAAG` has an E-score of 0.253.
For `AATTTGTG`, the E-score was 0.188.
The E-score of `CGTTAATC` is reported as 0.133.
`GCTCCTAC` gave an E-score of -0.125.
`AGGACGGC` gave an E-score of -0.196.
With `ATGGGAGG` the E-score was -0.0452.
With `CTCTTGGC` the E-score was -0.173.
`ACCAAAGG` has an E-score of -0.0366.
`CTGATTTA` has an E-score of 0.135.
For `AAGATGGG`, the E-score was -0.0467.
With `CAAAGAAA` the E-score was 0.166.
With `CCTTAACA` the E-score was 0.206.
`AGACGGGG` has an E-score of -0.345.
`CTCTATTA` has an E-score of 0.25.
`AGACCCAT` has an E-score of -0.0746.
The E-score of `GACCATAC` is reported as -0.0312.
For `GGCAGAGA`, the E-score was -0.121.
`TAATGAAA` gave an E-score of 0.374.

Block 5
Target: ABI1, truncated, D143A, DHFR fusion (Arabidopsis thaliana)
Method: DHFR PCA, deep sequencing
Sample: yeast
Notes: methotrexate growth selection, single substitutions
Together with: (+)-ABA 200 µM
Baseline: wild-type fitted maximum
Reading: higher = stronger binding
Starting sequence: PYL1, truncated, DHFR fusion (Arabidopsis thaliana); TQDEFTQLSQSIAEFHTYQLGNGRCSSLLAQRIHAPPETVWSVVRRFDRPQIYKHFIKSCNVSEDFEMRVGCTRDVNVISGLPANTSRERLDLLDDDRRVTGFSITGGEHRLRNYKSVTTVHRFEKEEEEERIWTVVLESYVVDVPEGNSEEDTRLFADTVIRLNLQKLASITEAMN
`N77E` — result for “relative binding score”: 105%.
`P83C`: “relative binding score” 53.4%.
For `V62F`, “relative binding score” read 89.9%.
For `H55G`, “relative binding score” read 104%.
For `E174Q`, “relative binding score” read 89.5%.
For `S117W`, “relative binding score” read -8.27%.
Under “relative binding score”, `N165C` is recorded as 8.39%.
`S59C` — result for “relative binding score”: 99.5%.
`D153F` — result for “relative binding score”: 6.34%.
`V137S` — result for “relative binding score”: -5.96%.
`R98A`: “relative binding score” 96.8%.
Under “relative binding score”, `L169A` is recorded as 3.17%.
For `I172A`, “relative binding score” read 83.1%.

Single results of other studies
For `MDASRQLMLNEEQ`, the binding score was 0.103 (Saccharomyces cerevisiae; peptide binding, yeast competitive growth sequencing; peptide, cyclin-Cln2 fusion strain; concentration not given, Cln2 background subtracted; direction not given).

For quick reference, copied from above (block 4):
`AGACCCAT` has an E-score of -0.0746.
With `AGTTTGCG` the E-score was -0.145.
The E-score of `GACCATAC` is reported as -0.0312.
The E-score of `CGTTAATC` is reported as 0.133.
With `AAGTTCAT` the E-score was 0.0794.
`CTAATAAG` has an E-score of 0.253.
`GCTCCTAC` gave an E-score of -0.125.
With `CTCTTGGC` the E-score was -0.173.
With `CAAAGAAA` the E-score was 0.166.
